Published values of several laboratories.
Values joined by “and” are separate records of one study, mostly repeats; a detail may differ. ± gives the spread as reported.

Protein sequences, listed by entry. Tags and fused reporters are not part of them. Residues count along the entry.
UniProt A0A381MCS3, 1-451: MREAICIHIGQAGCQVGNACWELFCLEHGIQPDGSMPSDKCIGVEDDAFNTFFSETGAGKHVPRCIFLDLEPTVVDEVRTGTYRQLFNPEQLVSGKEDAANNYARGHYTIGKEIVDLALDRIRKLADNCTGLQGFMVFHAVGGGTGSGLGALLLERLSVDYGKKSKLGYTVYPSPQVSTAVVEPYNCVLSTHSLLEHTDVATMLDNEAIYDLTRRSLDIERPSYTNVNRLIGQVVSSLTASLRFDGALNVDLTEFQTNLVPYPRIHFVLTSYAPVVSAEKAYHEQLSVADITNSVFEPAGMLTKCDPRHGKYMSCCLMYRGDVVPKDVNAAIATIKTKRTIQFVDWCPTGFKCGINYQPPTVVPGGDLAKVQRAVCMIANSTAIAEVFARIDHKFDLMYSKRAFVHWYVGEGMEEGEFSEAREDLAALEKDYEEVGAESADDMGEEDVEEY
UniProt A4HTR0, 1-443: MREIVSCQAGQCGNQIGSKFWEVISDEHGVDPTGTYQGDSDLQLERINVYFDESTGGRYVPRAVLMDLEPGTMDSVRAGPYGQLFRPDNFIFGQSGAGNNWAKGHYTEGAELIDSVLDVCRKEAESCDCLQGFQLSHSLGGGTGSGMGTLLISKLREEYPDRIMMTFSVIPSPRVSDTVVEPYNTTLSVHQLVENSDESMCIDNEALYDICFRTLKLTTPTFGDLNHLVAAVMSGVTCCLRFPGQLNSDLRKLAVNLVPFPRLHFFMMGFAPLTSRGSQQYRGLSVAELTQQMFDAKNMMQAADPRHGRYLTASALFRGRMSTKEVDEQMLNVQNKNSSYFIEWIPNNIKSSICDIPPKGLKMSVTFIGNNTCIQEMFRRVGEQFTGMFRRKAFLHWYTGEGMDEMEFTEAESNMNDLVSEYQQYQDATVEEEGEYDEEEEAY
UniProt Q9UM73, whole entry, looked up: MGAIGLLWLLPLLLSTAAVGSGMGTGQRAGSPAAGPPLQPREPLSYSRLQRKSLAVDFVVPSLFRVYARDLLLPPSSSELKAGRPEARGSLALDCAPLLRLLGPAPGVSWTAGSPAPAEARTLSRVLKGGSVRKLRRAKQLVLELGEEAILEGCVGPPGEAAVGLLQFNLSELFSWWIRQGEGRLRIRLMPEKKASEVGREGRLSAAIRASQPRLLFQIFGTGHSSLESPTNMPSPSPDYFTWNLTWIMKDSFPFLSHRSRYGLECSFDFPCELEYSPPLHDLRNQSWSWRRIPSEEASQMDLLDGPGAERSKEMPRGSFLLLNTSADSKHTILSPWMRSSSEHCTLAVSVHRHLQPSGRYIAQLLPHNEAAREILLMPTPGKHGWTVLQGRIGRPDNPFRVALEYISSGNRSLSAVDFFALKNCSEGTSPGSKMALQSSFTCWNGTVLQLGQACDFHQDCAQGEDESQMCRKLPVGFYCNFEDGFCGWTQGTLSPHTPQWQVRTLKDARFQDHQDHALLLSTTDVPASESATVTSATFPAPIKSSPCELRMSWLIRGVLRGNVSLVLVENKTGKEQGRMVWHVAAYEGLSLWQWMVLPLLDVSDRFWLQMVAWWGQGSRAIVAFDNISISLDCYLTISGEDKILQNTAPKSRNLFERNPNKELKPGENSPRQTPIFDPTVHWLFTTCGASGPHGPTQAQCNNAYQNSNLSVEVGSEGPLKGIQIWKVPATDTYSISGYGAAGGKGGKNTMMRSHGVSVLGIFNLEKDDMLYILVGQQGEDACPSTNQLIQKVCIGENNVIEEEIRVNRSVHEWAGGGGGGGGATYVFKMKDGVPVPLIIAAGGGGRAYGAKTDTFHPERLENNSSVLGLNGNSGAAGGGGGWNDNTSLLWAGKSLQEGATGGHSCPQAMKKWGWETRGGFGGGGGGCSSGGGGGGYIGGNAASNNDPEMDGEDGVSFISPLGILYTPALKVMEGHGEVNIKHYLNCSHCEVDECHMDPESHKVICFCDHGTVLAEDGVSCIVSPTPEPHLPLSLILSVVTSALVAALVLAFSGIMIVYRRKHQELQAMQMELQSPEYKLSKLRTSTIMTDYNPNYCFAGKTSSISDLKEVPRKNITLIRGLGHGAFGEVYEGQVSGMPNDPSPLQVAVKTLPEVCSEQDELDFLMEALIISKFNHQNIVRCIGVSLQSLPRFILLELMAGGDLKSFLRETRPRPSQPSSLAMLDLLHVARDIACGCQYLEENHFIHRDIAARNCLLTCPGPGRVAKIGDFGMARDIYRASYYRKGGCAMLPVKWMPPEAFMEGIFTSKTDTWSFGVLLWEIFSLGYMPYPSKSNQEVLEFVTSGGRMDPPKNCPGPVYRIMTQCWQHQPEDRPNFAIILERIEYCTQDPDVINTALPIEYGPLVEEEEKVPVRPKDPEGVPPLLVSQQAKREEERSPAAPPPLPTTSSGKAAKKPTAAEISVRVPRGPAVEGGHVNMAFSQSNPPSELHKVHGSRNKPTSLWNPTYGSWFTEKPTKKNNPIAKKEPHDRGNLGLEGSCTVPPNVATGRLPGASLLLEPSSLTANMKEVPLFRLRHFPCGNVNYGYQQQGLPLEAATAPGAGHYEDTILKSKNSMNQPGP
UniProt P00519, 242-493 E255V limits assumed: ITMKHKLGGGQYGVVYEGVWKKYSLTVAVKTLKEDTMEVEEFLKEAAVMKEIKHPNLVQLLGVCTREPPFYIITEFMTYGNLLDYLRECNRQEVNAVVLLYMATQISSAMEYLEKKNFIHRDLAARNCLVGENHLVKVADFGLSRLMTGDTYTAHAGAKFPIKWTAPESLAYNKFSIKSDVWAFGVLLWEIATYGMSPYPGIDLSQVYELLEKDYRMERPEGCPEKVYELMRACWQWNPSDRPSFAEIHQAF
UniProt Q00960, 27-1482 limits assumed: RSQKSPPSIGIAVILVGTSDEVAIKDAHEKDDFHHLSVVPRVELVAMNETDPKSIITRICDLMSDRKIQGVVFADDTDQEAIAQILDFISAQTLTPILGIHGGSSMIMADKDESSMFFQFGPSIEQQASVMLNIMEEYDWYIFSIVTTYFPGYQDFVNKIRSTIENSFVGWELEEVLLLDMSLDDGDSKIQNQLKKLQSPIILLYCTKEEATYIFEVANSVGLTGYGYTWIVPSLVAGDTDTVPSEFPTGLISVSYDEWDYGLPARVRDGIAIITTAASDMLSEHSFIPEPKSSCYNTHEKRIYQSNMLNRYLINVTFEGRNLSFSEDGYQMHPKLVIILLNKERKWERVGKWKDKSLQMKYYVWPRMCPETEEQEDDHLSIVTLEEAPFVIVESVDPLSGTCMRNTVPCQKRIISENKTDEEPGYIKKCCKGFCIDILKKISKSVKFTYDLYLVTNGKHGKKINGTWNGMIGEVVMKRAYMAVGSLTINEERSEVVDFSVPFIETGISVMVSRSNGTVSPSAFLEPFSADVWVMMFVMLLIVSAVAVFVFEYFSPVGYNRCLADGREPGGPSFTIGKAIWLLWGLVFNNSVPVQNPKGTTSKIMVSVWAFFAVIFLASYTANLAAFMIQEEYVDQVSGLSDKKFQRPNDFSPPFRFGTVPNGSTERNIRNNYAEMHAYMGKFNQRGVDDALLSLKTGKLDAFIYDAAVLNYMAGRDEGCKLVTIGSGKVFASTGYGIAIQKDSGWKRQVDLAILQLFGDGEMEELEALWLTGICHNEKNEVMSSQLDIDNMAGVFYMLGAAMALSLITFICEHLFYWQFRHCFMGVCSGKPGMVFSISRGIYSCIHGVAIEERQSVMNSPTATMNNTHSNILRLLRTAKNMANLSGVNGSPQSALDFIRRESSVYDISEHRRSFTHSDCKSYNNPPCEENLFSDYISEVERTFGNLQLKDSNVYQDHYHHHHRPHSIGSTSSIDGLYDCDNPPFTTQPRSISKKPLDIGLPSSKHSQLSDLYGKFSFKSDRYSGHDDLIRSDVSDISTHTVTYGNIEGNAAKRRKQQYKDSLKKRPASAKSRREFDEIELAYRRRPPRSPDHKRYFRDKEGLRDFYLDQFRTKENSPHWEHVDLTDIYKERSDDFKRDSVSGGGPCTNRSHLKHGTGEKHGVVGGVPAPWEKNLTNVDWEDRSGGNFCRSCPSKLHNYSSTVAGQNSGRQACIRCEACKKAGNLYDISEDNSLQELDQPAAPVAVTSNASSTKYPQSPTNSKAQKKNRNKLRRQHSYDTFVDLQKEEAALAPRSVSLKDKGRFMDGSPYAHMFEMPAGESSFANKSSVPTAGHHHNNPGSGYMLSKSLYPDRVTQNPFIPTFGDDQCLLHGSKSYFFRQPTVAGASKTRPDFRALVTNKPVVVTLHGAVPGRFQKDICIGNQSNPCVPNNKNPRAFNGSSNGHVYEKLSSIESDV
UniProt P07384, whole entry: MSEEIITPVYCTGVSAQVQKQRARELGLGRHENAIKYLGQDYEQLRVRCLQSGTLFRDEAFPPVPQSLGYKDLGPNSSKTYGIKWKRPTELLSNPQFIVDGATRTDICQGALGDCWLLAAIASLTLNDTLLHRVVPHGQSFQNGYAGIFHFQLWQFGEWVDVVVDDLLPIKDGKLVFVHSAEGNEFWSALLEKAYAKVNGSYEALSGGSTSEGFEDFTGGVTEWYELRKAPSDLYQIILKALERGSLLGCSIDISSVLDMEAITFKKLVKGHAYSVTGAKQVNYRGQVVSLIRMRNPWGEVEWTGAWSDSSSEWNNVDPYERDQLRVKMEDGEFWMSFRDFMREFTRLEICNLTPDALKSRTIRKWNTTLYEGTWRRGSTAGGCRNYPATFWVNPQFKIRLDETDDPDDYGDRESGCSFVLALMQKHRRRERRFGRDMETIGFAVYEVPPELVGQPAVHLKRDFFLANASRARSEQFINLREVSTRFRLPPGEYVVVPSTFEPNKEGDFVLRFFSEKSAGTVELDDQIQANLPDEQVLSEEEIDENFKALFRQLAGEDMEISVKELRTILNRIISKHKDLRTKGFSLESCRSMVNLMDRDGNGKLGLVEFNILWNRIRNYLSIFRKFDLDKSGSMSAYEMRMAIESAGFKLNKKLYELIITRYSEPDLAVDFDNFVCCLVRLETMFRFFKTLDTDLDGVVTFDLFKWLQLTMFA
UniProt P31749, whole entry: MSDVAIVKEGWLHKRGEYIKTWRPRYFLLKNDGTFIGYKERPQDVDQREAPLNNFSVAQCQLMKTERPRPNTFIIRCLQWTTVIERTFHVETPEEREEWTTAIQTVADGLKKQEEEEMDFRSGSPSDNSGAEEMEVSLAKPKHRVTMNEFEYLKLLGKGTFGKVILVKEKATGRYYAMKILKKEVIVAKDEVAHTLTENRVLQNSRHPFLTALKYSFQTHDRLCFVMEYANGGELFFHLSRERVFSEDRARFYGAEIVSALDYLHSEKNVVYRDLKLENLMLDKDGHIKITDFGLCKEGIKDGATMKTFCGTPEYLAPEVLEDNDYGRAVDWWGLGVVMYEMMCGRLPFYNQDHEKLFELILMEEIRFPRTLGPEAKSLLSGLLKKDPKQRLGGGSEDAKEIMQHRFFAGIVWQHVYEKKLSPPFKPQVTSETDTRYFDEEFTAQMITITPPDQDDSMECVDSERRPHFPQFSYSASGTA
UniProt P05771, 1-673 isoform 2: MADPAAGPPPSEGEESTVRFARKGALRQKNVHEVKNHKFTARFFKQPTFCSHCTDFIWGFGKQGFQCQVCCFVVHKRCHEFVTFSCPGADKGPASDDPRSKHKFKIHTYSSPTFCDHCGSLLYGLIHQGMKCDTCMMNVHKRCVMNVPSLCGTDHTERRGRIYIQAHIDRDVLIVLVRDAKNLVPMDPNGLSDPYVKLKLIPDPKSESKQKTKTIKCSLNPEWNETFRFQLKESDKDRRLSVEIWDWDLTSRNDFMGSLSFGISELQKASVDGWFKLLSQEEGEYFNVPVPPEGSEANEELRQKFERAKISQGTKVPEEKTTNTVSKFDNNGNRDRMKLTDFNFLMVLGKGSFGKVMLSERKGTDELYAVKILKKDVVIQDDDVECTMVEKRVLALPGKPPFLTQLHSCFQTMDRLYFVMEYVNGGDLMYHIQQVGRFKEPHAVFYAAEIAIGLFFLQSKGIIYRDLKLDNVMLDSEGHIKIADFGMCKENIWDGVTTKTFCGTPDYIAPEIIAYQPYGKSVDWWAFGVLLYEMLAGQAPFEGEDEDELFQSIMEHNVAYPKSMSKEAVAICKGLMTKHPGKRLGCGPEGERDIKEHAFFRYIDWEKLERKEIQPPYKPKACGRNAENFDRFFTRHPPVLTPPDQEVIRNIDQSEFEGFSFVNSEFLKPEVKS
UniProt Q61009, whole entry: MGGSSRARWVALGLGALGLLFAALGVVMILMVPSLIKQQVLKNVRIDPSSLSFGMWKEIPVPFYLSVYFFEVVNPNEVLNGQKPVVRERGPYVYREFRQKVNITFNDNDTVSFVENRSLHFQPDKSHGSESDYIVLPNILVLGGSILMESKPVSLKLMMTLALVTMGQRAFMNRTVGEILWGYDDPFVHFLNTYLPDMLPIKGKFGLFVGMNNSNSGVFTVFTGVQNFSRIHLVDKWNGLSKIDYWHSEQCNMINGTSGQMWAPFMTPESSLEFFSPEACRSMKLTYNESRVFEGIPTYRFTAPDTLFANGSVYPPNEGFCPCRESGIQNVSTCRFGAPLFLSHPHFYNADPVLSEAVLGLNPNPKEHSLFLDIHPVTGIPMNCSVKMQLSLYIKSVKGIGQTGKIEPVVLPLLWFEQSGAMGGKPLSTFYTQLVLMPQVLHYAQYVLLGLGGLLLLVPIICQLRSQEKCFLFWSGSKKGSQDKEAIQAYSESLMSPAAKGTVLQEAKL

`COC(=O)[C@@H]1C(c2nc3cc(C(F)(F)F)ccc3s2)=Cc2cc3c(cc2[C@H]1c1cc(OC)c(OC)c(OC)c1)OCO3` has an IC50 of over 20 µM (Tubulin alpha/beta heterodimer (Leishmania infantum, UniProt A0A381MCS3+A4HTR0); tubulin polymerization, inhibitor; 37 °C, added: tubulin 1.2 mg/mL).
`Cc1ccc(N=Nc2cc(S(=O)(=O)O)cc(S(=O)(=O)O)c2O)c(C)c1` has an IC50 of 41 µM (ALK tyrosine kinase receptor (ALK, Homo sapiens, UniProt Q9UM73); ELISA).
With `COc1cc(Nc2ncnc(-c3cccnc3Nc3cc(NC(=O)c4cccc(C(F)(F)F)c4)ccc3C)n2)cc(OC)c1OC` the IC50 was 0.04 ± 0.005 µM (Tyrosine-protein kinase ABL1 (ABL1, Homo sapiens, UniProt P00519, E255V); enzyme activity; kinase domain).
`CS(=O)(=O)Nc1ccc(OC[C@@H](O)CNCCc2ccc(Cl)c(Cl)c2)cc1` gave an IC50 of 0.036 µM (Glutamate NMDA receptor; Grin1/Grin2b (Grin1/Grin2b, Rattus norvegicus, UniProt P35439+Q00960); pH 6.9).
With `CCNC(=O)C(=O)[C@H](Cc1ccccc1)NC(=O)[C@H]1CCC(=O)N1Cc1ccc(F)cc1` the IC50 was 0.38 ± 0.03 µM (Calpain-1 catalytic subunit (CAPN1, Homo sapiens, UniProt P07384); enzyme activity, inhibitor).
With `CNC(=O)Oc1ccccc1C=C1Cc2cc(OC)c(OC)cc2C1=O` the IC50 was 0.346 ± 0.0291 µM (Cocaine esterase (CES2, Homo sapiens, UniProt O00748); inhibitor; 33 min preincubation, added: fluorescein diacetate).
`Cc1ccc(-c2cc(CF)nn2-c2ccc(S(C)(=O)=O)cc2)cc1` gave an IC50 of 0.6 µM (Prostaglandin G/H synthase 2 (PTGS2, Homo sapiens, UniProt P35354); inhibitor; concentration not given).
For `O=C(OC(C(F)(F)F)C(F)(F)F)N1CCc2cccc(Br)c2C1`, the IC50 was 0.058 ± 0.0035 µM (Monoacylglycerol lipase ABHD6 (ABHD6, Homo sapiens, UniProt Q9BV23); inhibitor, fluorescence).
The IC50 of `Cc1ccccc1SCC(=O)Nc1ccc2nc(SCC(=O)NC3CC3)sc2c1` is reported as over 50 µM (Estrogen receptor (ESR1, Homo sapiens, UniProt P03372); reporter gene, antagonist; HEC-1 transfected ERα luciferase reporter).
`Clc1ccc(C2(c3ccc(-c4ccnc5ncccc45)cc3)CCNCC2)cc1` has an IC50 of over 10 µM (RAC-alpha serine/threonine-protein kinase (AKT1, Homo sapiens, UniProt P31749); kinase activity, inhibitor, radiometric HotSpot; added: ATP 10 µM).
`CN1CCC[C@@H]1C(=O)N[C@@H](Cc1ccc(-c2ccccn2)cc1)B(O)O` has an IC50 of over 10 µM (20S proteasome, β1 subunit (Plasmodium falciparum, UniProt Q8I0U7+Q8I6T3); enzyme activity, inhibitor; added: Ac-nLPnLD-AMC).
With `CC(=O)Nc1ccc(Br)cc1-c1nc2ccccc2[nH]c1=O` the IC50 was over 50 µM (Protein diaphanous homolog 1, FH2 domain (Diaph1, Mus musculus, UniProt O08808); actin assembly, inhibitor, pyrene-actin polymerization).
`CC(=NN=C1NC(=O)C(CC(=O)Nc2ccc(C(=O)O)cc2)S1)c1cccs1` (stereo not shown) has an IC50 of 8.56 µM and 8.6 µM (Protein phosphatase 3 catalytic subunit alpha (PPP3CA, Homo sapiens, UniProt Q08209); phosphatase activity, inhibitor, malachite green; added: phosphopeptide substrate at Km).
The IC50 of `NC(=O)c1cn(-c2ccc(F)cc2)c2ccc(CN3CCCOCC3)cc2c1=O` is reported as over 10 µM (Metabotropic glutamate receptor 2 (Grm2, Rattus norvegicus, UniProt P31421); calcium mobilization, negative allosteric modulator).
`Cc1nc(N)sc1-c1csc(Nc2ccc(N(C)C)cc2)n1` gave an IC50 of 10 µM (Protein-lysine 6-oxidase (Homo sapiens, UniProt P28300); LOX activity, inhibitor; MDA-MB-231).
For `COC(=O)/C(=C/c1c[nH]c2ccc(F)cc12)c1ccc(F)cc1`, the IC50 was over 20 µM (Amyloid-beta precursor protein, amyloid-beta peptide (APP, Homo sapiens, UniProt P05067); Aβ42 oligomerisation, ELISA).
With `CN1CC[C@H](c2c(O)cc(O)c3c(=O)cc(-c4ccccc4F)oc23)[C@H](O)C1` the IC50 was over 10 µM (Protein kinase C beta type, isoform beta-II (PRKCB, Homo sapiens, UniProt P05771); ATP at Km).
`COc1ccc(-c2nc(S(C)(=O)=O)nn2-c2ccc(OC)cc2)cc1` has an IC50 of 0.011 ± 0.001 µM (Prostaglandin G/H synthase 1 (Macaca mulatta, UniProt F6S984); thromboxane B2 production, inhibitor, enzyme immunoassay; monkey whole blood).
With `COCCN1C(=O)C(C)(C)c2cc(-c3csc(NC(=O)c4cc(OC)cc(OC)c4)n3)ccc21` the IC50 was 0.09 µM (Scavenger receptor class B member 1 (Mus musculus, UniProt Q61009); DiI-HDL uptake, inhibitor; mouse cells; added: DiI-HDL).

Excerpt of the above:
With `CCNC(=O)C(=O)[C@H](Cc1ccccc1)NC(=O)[C@H]1CCC(=O)N1Cc1ccc(F)cc1` the IC50 was 0.38 ± 0.03 µM (Calpain-1 catalytic subunit (CAPN1, Homo sapiens, UniProt P07384); enzyme activity, inhibitor).
With `CN1CC[C@H](c2c(O)cc(O)c3c(=O)cc(-c4ccccc4F)oc23)[C@H](O)C1` the IC50 was over 10 µM (Protein kinase C beta type, isoform beta-II (PRKCB, Homo sapiens, UniProt P05771); ATP at Km).
For `O=C(OC(C(F)(F)F)C(F)(F)F)N1CCc2cccc(Br)c2C1`, the IC50 was 0.058 ± 0.0035 µM (Monoacylglycerol lipase ABHD6 (ABHD6, Homo sapiens, UniProt Q9BV23); inhibitor, fluorescence).
